Results gathered from unrelated publications.
Parts stem from different laboratories: compare values within a part only. Positions count from the first letter of the parent shown.

Sample 1
Target: RNA binding protein fox-1 homolog 2, RRM domain, GST-SBP tag (RBFOX2, Homo sapiens, UniProt O43251-10, residues 100-194)
Technique: RNA Bind-n-Seq
Molecule type: RNA
Matrix: in vitro
Concentration: 365 nM
Notes: natural RNA segment, single round, ends assumed
Reference: no-protein control
Reading: higher = stronger binding
Endpoint: RBNS enrichment (R)
All sequences stand within: GGGAGUUCUACAGUCCGACGAUC … UGGAAUUCUCGGGUGCCAA
Construct (chain): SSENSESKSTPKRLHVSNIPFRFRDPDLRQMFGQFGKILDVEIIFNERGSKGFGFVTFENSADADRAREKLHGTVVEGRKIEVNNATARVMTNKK
GGAUAGCCAGGAAGUUUCUAGUUUGUGUAACCUAGAAGGGUCACUUUAAUAAAAAUUGUUAUGAACUAUAGUAUUUUAGAUGAUGAGUGACUUAUUUUAAUUCCACUUUA: 0.302
GGAUAACUAACUCCUAGGGAUAACCAUUUCUAUCCUGUUCCAAAGUCUUAUUUUAUAGUUUGAAAAGCACUUUGCACACAGUUCUUGUAUAUAAAAGUAAAGAUGUAAUU: 4.83
CUGAAGCAAACAGUGUCCCUUCUGGCUGUGUUGGAGCCUCCCCAGUAACCACCUAUUUAUUUUACCUCUUUCCCAAACCUGGAGCAUUUAUGCCUAGGCUUGUCAAGAAU: 0.194
UUAUUAUUUAAUCUGCACUGAUUUUCCUGUCUUUGGUGGGUACAGUGUGAUAGGACCACUGUCCUGGCAGAGCAGGACUAAAGGAAUGUAGACCCCAUCUCAGUGUCUUC: 0.579
UAGUAGCAAUAGCAGAGAGAGCUGUAAAUUCUCAGGUCCUCCUAGACUUAACCAAAUCUGAGUGCCCCGGAUGGAGUUGAGCUCUGCAGGUCAGCUAACUCUAGCUCAGG: 0.428
CACACCAGCCGGGGCUGUACCGCACUCGUGGUGGCUUGUUGUCCUCUCGACUCCUGUGGCAUGGUGCUAGUGCAUGUGACCUGUGCUGUUGUCACCCCAUGUGUUGUGUG: 22.8
GCUUUUGUGAUGCAGCUACCAUGAUUCCAAAUAAGUAAAAAUCAGCCACUUCUCCCUGUCCACUAGAGGUCGCUGUCUUCACAGCUUCUCUCACCCUAGCCAAAGGUCCU: 0.351
GUUGGUGCUGUAGGCACCCGCCAGGGAGCAGGGACCCGACUUGCAGACGCAUUGCCCGGUACUAGGAAGGAGUGAGGUGUGUUCCCACCGUACACUUCCCACACGAGCUG: 0.294
GUGCUUACUAACAAAAUGUGAAAAGCAAGACCCAGGUGUCUCAUGUGGUGGCAGCACAGUGGCAGGCCAGUGGUCAACUUAGGGCAUCUUUUCUCUGCCACGGCAGCGCA: 1.19
CGGCCUGGCAUGCAGCUUGUCCUUGCUCCUGGAACCUGGCAGGCCCUGCCCAGCCAGCCAUCGGAAGAGAGGGCUGAGCCAUGGGGGUUUGGGGCUAAGAAGUUCACCAG: 2.67
AGGUAAUCGCCCAACUUGGCUUUGGGGAAAGUCAGAGUCUGACAGAGCUGAGCAUUGUCUCAUCCAGAGCUAAGGACAUGAGUCCUCUAUUUCAAGUAGGGAAACCCAGG: 0.292
CCCAGGCUAUUACAGGCAUAUUAUGGACAAAUAUAAAGGCCAACUAGUGAUCCCAGCCCAAGAGGUUCAGGGAAGUCUUAUGAAGGAUUUGUCUCAGCUGAGCCUGACAG: 0.404

Sample 2
Target: Sal-like protein 4, full length isoform B (SALL4, Homo sapiens, UniProt Q9UJQ4-2, residues 1-616)
Technique: universal PBM
Molecule type: double-stranded DNA, one strand shown
Matrix: in vitro
Concentration: not given
Notes: 8-mer, flanks averaged, mean of replicates
Reading: higher = stronger binding
Endpoint: E-score
GACCTATA: 0.251
CGAGACGA: -0.256
CACTCGTA: -0.0406
GTTCATGA: 0.0682
ACCGCTCT: -0.178
CTTCTCTA: -0.0133
TCCCGTAA: 0.0616
GTTATAAA: 0.377
TCGTTGAA: 0.0724
CGGATACG: -0.265
AATGACAA: 0.235
TACGGGGA: -0.218
CTGTTGAA: 0.118
CATACACC: -0.0928
ATCGAGAC: -0.0531
GCAGAAAC: 0.0673
ATAGCTTC: 0.102
AATTTCGC: 0.118
CGCATCAC: -0.0309
GAAACAAA: 0.249
AGTCAGGC: -0.0986
GAAACGCC: -0.177
GATCGTGC: -0.0255
AGCCGTGA: -0.0902
CGGATATC: 0.00796

Sample 3
Target: ABI1, truncated, D143A, DHFR fusion (Arabidopsis thaliana)
Technique: DHFR PCA, deep sequencing
Matrix: yeast
Notes: methotrexate growth selection, single substitutions
With: (+)-ABA 2500 µM
Reference: wild-type fitted maximum
Reading: higher = stronger binding
Endpoint: relative binding score
Starting sequence: PYL1, truncated, DHFR fusion (Arabidopsis thaliana); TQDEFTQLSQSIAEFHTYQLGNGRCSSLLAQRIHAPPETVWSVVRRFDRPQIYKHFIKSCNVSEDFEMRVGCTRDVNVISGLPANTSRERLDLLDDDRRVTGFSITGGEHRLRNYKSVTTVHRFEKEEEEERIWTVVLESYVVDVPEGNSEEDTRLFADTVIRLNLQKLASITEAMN; partner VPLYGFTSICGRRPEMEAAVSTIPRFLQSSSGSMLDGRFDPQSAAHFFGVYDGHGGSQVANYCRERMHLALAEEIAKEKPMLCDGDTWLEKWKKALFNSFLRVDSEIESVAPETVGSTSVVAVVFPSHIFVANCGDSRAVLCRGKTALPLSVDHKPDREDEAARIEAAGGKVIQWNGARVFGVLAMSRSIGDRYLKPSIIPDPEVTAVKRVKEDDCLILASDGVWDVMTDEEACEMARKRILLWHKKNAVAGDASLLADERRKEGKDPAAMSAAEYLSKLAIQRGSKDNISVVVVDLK
P36K: 97.5%
V136L: 96.7%
E131I: 108%
L93A: 104%
Y53V: 73.3%
Y18V: 97.4%
I33E: -31.6%
A170C: 95.9%
E128P: 108%
L156G: 94.7%
G71D: 84.5%
E125F: 107%
D95K: 85.4%
D75L: 94.7%
E147W: 91.1%
I162Q: 32.7%
E38C: 81.7%
V143Y: 69.1%
L138N: 63.8%
S150W: 77%
G71Y: 72%
L28N: 76.4%
T17L: 88.9%
C60M: 79%
I105W: 11.2%

Sample 4
Target: Histone acetyltransferase KAT6A, both winged helices, GST fusion (KAT6A, Homo sapiens, UniProt Q92794, residues 1-181)
Technique: protein binding microarray
Molecule type: double-stranded DNA, one strand shown
Matrix: in vitro
Concentration: not given
Notes: 8-mer, flanks averaged, mean of 2 arrays, mostly near background
Reference: not given
Reading: higher = stronger binding
Endpoint: E-score
Residues (chain): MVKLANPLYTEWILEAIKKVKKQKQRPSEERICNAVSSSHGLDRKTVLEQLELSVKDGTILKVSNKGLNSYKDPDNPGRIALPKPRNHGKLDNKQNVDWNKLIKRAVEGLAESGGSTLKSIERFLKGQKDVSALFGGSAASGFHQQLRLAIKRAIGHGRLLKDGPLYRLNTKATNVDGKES
AGAGAACA: -0.0818
CTGTGACA: -0.175
AATTGGCA: -0.135
TCAGTGAA: -0.125
TCCAAGGA: -0.0599
AAGGTTAC: -0.0869
AAGCCTCT: -0.357
GTAAAGAA: -0.0518
AAGGGGAC: -0.172
TCGTCCCA: -0.159
CGTTCAAA: 0.0804
CTGCAGAA: -0.054
CTTTCGGC: -0.0167
TTAAGGAA: -0.164
ACGGCGTG: 0.314
ATCAGGGC: -0.102
GAGGAGAA: -0.137
AAAGGTTG: -0.0756
ACTATTCT: -0.127
ATCAAACC: 0.0525
TCTGTCCA: -0.0571
CAGGCGAG: -0.15

For quick reference, copied from above (sample 2):
CGGATACG: -0.265
GCAGAAAC: 0.0673
GACCTATA: 0.251
GATCGTGC: -0.0255
CTGTTGAA: 0.118
